Results of several laboratories.
Parts stem from different laboratories: compare values within a part only. Values joined by “and” are separate records of one study, mostly repeats; a detail may differ.

Block 1
SMILES: CC(C)(C)c1cc(C=C(C#N)C#N)cc(Br)c1O
Read-out: enzyme activity
Action: inhibitor
Tested at: 0.5 µM
Endpoint: remaining activity
SRPK3 (Homo sapiens, UniProt Q9UPE1); baseline: control: 79.4%
Cyclin-dependent kinase 6, with cyclin D1 (CDK6, Homo sapiens, UniProt Q00534): 99.1%
GSK3A (Homo sapiens, UniProt P49840); baseline: control: 104%

Block 2
SMILES: CC[C@@H](C)c1nc2cc(Nc3ccnc4ccc(S(=O)(=O)C(C)C)cc34)ccc2s1.Cl
Method: CCK-8
Endpoint: survival
L929 RIPK3-/- reexpressing RIPK3 K51A/R69H; 6.25 µM, with: zVAD: 99.9% and 100% and 101% and 99.6%
L929 RIPK3-/- reexpressing RIPK3 K51A; 50 µM: 53.5% and 52% and 26.3% and 27.4%
L929 RIPK3-/- reexpressing RIPK3 K51A; 25 µM: 108% and 112% and 89.9% and 88.4% and 90.4%

Block 3
SMILES: Cc1cc2c(-c3ccco3)cnc(N[C@@H]3CCN(C)C[C@H]3C(=O)NC3CCCCC3)c2[nH]c1=O
Tested at: 10 µM
Endpoint: inhibition
DRD5 (Homo sapiens, UniProt P21918); ligand displacement: 33.2%
SLC6A4 (Homo sapiens, UniProt P31645); cell-free assay: 17.7%
HTR1A (Homo sapiens, UniProt P08908); ligand displacement: 17.3%

Block 4
Organism: Sarcocystis neurona
Read-out: parasite growth
Tested at: concentration not given
Setting: secondary screen
Endpoint: inhibition
C[N+]1(CCC(C(N)=O)(c2ccccc2)c2ccccc2)CCCCC1.[Br-]: -11.9%
COc1cc(N)c(Cl)cc1C(=O)NC1CN2CCC1CC2.Cl (stereo not shown): -27.3%
Cl.OC1CCCCC1N1CCC(c2ccccc2)CC1 (racemic): -37.2%
CN1CC[C@@H](c2ccc(F)cc2)[C@H](COc2ccc3c(c2)OCO3)C1: -15.3%
